Results gathered from unrelated publications.
Numbered parts are unrelated; each lists some results of a single study. Substitutions count along the parent as printed.

Study 1
Target: CCNB3, cyclin fold, Cln2 fusion (human)
Technique: yeast growth competition, sequencing
Matrix: yeast
Setting: weak parent motif
Reference: not given
Direction: higher = stronger binding
Starting sequence: WEE1 docking peptide (human); HKTFRKLRLFDTP; partner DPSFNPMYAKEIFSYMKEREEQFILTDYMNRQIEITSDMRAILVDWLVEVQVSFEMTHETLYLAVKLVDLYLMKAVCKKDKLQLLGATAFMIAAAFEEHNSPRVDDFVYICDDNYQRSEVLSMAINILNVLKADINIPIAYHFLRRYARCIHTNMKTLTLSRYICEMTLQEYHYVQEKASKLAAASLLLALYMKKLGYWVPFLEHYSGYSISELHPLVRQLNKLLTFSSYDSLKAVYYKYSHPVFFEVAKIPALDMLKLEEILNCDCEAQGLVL
Variant	normalised enrichment score
D11S	-0.0319
D11W	0.226
K6G	0.214
L9S	0.41
R8S	0.764
L7S	-0.303

Study 2
Target: Ras GTPase-activating protein-binding protein 1, C-terminal RGG region (G3BP1, Homo sapiens, UniProt Q13283)
Sequence of UniProt Q13283 (whole entry, looked up): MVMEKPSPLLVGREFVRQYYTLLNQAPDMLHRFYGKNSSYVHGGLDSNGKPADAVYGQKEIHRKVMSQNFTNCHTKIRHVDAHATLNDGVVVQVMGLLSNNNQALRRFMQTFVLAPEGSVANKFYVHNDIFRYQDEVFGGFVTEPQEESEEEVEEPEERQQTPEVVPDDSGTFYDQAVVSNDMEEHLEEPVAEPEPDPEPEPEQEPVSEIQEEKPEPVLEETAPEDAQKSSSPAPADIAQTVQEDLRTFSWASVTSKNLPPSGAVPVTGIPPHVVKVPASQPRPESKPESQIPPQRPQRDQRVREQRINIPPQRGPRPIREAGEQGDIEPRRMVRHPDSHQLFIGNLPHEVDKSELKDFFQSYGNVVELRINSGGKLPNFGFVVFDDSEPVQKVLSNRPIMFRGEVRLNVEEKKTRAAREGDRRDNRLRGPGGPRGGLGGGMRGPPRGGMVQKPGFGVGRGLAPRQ
Technique: RNA Bind-n-Seq
Molecule type: RNA
Matrix: in vitro
Concentration: 1 µM
Setting: whole 134-nt RNA, ends assumed
With: 150 mM KCl
Reference: input library
Direction: higher = stronger binding
All sequences stand within: GGGAGUUCUACAGUCCGACGAUC … UGGAAUUCUCGGGUGUCAAGG
Strand	log2 enrichment
GUCCUGUGCUACACAUCGUAUGUACCGAAUCGGGAAAAAAAGGGAAAAAAAGGGAGGGAAAGUAUUAUGUUACGCCGUUCGGAUCUGCAC	0.37
UCCUGUGCUACACAUCGUAUGUACCGAAUCGGGUUUUUGGGUUUUUUUGGGUUUUUGGGAAAGUAUUAUGUUACGCCGUUCGGAUCUGCA	-0.277
AGUCCUGUGCUACACAUCGUAUGUACCGAAUCGGGCCCCGGGCCCCGGGGCCCCGGGGAAAGUAUUAUGUUACGCCGUUCGGAUCUGCAC	-2.12
CAAGUCCUGUGCUACACAUCGUAUGUACCGAAUCGGGAAAGGGGAAAGGGGAAAGGAAAGUAUUAUGUUACGCCGUUCGGAUCUGCACUU	-1.24
CCUCAAGUCCUGUGCUACACAUCGUAUGUACCGAAUCGGAGGGAGGGAGGGGAAAGUAUUAUGUUACGCCGUUCGGAUCUGCACUUCCAG	0.542
AGUCCUGUGCUACACAUCGUAUGUACCGAAUCGGGUUUUUGGGUUUUUUUGGGAGGGAAAGUAUUAUGUUACGCCGUUCGGAUCUGCACU	0.192

Study 3
Target: Interferon regulatory factor 5, full length, phosphomimetic (IRF5, Homo sapiens, UniProt Q13568-2, residues 1-514, K96S/S451D/S453D/S456D/S462D)
Technique: protein-binding microarray
Molecule type: double-stranded DNA, one strand shown
Matrix: in vitro
Concentration: 250 nM
Setting: 60-bp whole probe
With: salmon DNA 0.4 mg/ml
Reference: random background probes
Direction: higher = stronger binding
All sequences stand within: GCCTAGCAC … GTCTTGATTCGCTTGACGCTGCTG
Strand	log fluorescence [z-score]
TTATGTATCGGACTGGGTTAGTGCTAG	1.71
AGACATTCTTTCAGTTGGAAGTGCTAG	2.85
TTAGGTTCCGTTTTCGGTTAGTGCTAG	7.5
CCTCGTCTCTATCAAAAATAGTGCTAG	0.494
GACGATTTCGGGACTGTAGACGTGCTA	1.82

Mixed results
Molecule	target	test	test system	setting	how to read	endpoint	result
PhoQ, residues 284 288 289 292 302 303 SLGVVW	PhoP, residues 12 14 15 18 19 LYHSL (Escherichia coli, UniProt P23836)	Sort-seq, refers to: YFP reporter	E. coli	PhoQ-PhoP variant library, with: 10 µM Mg2+	reference: high Mg2+ state, higher = stronger signaling	fold induction	0.562

Some of these lines once more (study 3):
Strand	log fluorescence [z-score]
GACGATTTCGGGACTGTAGACGTGCTA	1.82
